Published values pooled from the literature.
A part holds a random share of what one study measured. Values joined by “and” are separate records of one study, mostly repeats; a detail may differ.
UniProt Q99683, sequence (whole entry, looked up): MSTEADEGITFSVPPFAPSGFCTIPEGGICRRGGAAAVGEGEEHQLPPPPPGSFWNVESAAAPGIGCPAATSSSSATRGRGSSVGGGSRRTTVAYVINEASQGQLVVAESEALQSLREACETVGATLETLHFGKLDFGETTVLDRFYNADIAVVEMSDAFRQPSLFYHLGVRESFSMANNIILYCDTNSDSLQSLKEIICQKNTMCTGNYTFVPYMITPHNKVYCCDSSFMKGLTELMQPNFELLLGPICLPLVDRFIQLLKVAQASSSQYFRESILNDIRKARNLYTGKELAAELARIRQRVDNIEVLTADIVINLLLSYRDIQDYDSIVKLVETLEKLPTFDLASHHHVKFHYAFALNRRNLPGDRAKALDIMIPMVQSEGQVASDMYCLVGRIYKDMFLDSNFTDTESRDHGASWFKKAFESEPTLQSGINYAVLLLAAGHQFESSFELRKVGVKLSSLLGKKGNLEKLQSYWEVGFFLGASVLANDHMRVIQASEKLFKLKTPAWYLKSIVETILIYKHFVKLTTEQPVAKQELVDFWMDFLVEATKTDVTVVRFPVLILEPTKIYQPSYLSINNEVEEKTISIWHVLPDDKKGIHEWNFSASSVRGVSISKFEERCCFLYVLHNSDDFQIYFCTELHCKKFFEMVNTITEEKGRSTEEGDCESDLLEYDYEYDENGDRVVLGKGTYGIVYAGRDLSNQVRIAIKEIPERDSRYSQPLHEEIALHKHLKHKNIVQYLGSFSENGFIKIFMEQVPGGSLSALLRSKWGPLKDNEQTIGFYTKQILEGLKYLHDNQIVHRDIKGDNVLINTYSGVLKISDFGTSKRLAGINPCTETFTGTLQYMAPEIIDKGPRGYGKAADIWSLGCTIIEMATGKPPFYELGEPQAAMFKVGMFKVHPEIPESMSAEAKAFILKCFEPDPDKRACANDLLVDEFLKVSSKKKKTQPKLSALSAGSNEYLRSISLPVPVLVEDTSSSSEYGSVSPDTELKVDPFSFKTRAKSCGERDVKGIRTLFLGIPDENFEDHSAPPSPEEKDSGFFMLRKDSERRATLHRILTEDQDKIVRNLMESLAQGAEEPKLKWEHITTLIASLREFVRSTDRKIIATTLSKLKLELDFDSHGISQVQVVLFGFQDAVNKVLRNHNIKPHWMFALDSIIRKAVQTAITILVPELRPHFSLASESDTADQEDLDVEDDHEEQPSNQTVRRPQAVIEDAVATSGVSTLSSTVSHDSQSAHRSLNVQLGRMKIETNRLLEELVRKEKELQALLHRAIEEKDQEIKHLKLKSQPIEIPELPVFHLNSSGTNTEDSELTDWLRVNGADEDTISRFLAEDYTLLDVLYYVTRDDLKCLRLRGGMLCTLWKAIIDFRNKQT

Study 1
Species: mouse
Sample: microsomes or S9
Tested at: 2 µM
Time: 0.5 h
Compound | remaining compound [%]
CCC(=O)CC(=O)Nc1cccc(Cl)c1Cl | 18.4
COC(=O)c1cn2c(nc3cc(F)c(F)cc32)c(C#N)c1O | 84
Clc1ccccc1/C=C/c1nc(-c2ccccn2)no1 | 0.191
CN(C)C1(CNC(=O)C(O)c2ccccc2Cl)CCCCC1 (stereo not shown) | 4.54
CC(C)(C)C1CCc2c(sc3ncnc(O)c23)C1 (stereo not shown) | 64.5
CC(C)=CCc1c2ccoc2c(O)c2oc(=O)ccc12 | 14.5
Cc1cc(C)nc(N2CCN(c3ccccn3)CC2)n1 | 0.0101
Cc1ccc(CNC(=O)N2Cc3c(sc4c3CCCC4)-n3cccc3C2C(C)C)cc1 (stereo not shown) | 0.621

Study 2
SMILES: CC(C)(C(=O)O)[C@H](NC(=O)Cc1cccc(I)c1)c1ccc2oc(=O)[nH]c2c1
Technique: Incucyte 3D growth
Tested at: 30 µM
Reading: higher = more growth
cell line | time | spheroid area
MEL-JUSO | 72.52 h | 1.39e+07 a.u. and 1.46e+07 a.u. and 1.24e+07 a.u. and 1.26e+07 a.u. and 1.09e+07 a.u. and 1.4e+07 a.u.
NCI-H1437 | 102 h | 2.34e+07 a.u. and 3.05e+07 a.u. and 2.5e+07 a.u. and 3.3e+07 a.u. and 2.65e+07 a.u. and 2.88e+07 a.u.
A375 | 150 h | 8.62e+07 a.u. and 7.86e+07 a.u. and 8.98e+07 a.u. and 9.49e+07 a.u. and 8.84e+07 a.u. and 1.09e+08 a.u.
A375 | 252.52 h | 1.96e+08 a.u. and 1.89e+08 a.u. and 1.67e+08 a.u. and 1.65e+08 a.u. and 1.72e+08 a.u. and 1.79e+08 a.u.
PC-9 | 30 h | 3.19e+08 a.u. and 3.17e+08 a.u. and 3.25e+08 a.u. and 3.44e+08 a.u. and 3.34e+08 a.u.
A375 | 270.52 h | 1.75e+08 a.u. and 1.77e+08 a.u. and 1.99e+08 a.u. and 2.03e+08 a.u. and 1.79e+08 a.u. and 1.86e+08 a.u.
A375 | 198.52 h | 1.49e+08 a.u. and 1.48e+08 a.u. and 1.31e+08 a.u. and 1.36e+08 a.u. and 1.54e+08 a.u. and 1.58e+08 a.u.
KP-4 | 198 h | 3.05e+07 a.u. and 3.12e+07 a.u. and 1.85e+07 a.u. and 3.51e+07 a.u. and 3.21e+07 a.u. and 4.86e+07 a.u.

Study 3
Target: Calcium/calmodulin-dependent protein kinase type II subunit alpha (CAMK2A, Homo sapiens, UniProt Q9UQM7)
UniProt Q9UQM7, sequence (whole entry, looked up): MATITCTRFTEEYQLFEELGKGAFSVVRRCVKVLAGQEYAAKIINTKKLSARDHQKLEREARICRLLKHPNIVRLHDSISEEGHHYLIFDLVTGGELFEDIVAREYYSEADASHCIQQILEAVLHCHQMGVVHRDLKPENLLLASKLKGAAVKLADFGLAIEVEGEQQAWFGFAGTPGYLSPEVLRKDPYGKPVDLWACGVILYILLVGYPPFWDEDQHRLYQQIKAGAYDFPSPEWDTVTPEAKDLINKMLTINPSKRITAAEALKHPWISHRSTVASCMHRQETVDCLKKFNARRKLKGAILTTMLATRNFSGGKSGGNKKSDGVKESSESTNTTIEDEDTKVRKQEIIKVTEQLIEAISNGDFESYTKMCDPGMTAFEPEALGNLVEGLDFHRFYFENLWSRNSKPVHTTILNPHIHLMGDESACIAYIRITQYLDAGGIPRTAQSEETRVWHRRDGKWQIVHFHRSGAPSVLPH
Read-out: enzyme activity
Mode: inhibitor
Tested at: 10 µM
Compound | inhibition
CCC[S+]([O-])c1ccc2[nH]c(NC(=O)OC)nc2c1 (stereo not shown) | -7%
CC(=O)c1ccc(O)c(C)c1 | 2%
CCCCC(O)C(=O)O (stereo not shown) | 31%
CC1=C(CC[C@H](C)CO[C@@H]2O[C@H](CO)[C@@H](O)[C@H](O)[C@H]2O)O[C@H]2C[C@H]3[C@@H]4CC[C@@H]5C[C@@H](O[C@@H]6O[C@H](CO)[C@H](O)[C@H](O)[C@H]6O[C@@H]6O[C@H](CO)[C@@H](O)[C@H](O)[C@H]6O)CC[C@]5(C)[C@H]4CC[C@]3(C)[C@@H]12 | -21%
C[C@H](CCC(=O)NCC(=O)O)[C@H]1CC[C@H]2[C@@H]3[C@H](O)C[C@@H]4C[C@H](O)CC[C@]4(C)[C@H]3CC[C@]12C | -10%
CO/N=C(\C(=O)N[C@@H]1C(=O)N2C(C(=O)[O-])=C(C[N+]3(C)CCCC3)CS[C@H]12)c1csc(N)n1 | -5%
O=c1ccc2nccc3c4ccccc4n1c23 | -22%
NC(=O)c1cnccn1 | -9%

Mixed results
Compound | target | read-out | mode | tested at | relative to | quantity | value
N/C(=N\[N+](=O)[O-])N/N=C\c1ccc(-c2cccc([N+](=O)[O-])c2)o1 | Mitogen-activated protein kinase kinase kinase 5 (MAP3K5, Homo sapiens, UniProt Q99683) | enzyme activity | inhibitor | 0.5 µM | control | remaining activity | 92.5%

For quick reference, copied from above (study 3):
Compound | inhibition
CC1=C(CC[C@H](C)CO[C@@H]2O[C@H](CO)[C@@H](O)[C@H](O)[C@H]2O)O[C@H]2C[C@H]3[C@@H]4CC[C@@H]5C[C@@H](O[C@@H]6O[C@H](CO)[C@H](O)[C@H](O)[C@H]6O[C@@H]6O[C@H](CO)[C@@H](O)[C@H](O)[C@H]6O)CC[C@]5(C)[C@H]4CC[C@]3(C)[C@@H]12 | -21%
C[C@H](CCC(=O)NCC(=O)O)[C@H]1CC[C@H]2[C@@H]3[C@H](O)C[C@@H]4C[C@H](O)CC[C@]4(C)[C@H]3CC[C@]12C | -10%
CO/N=C(\C(=O)N[C@@H]1C(=O)N2C(C(=O)[O-])=C(C[N+]3(C)CCCC3)CS[C@H]12)c1csc(N)n1 | -5%
